Assay results gathered from unrelated publications.
Compare with care: the assays were run in different laboratories. Several values in a cell are separate wells, animals, samples, runs or records. ± gives the spread as reported.

The efficacy of `CCN(CC)c1ccc2c(c1)oc(=O)c1c(Cl)cc(=O)oc12` is reported as 82% (LDR; silenced CMV-GFP reporter derepression, qHTS).
Under “late apoptotic cells”, `CC(=O)N[C@@H](CS)C(=O)O` is recorded as 3.05 ± 0.55% (HeLa; annexin V/PI flow cytometry; concentration not given, 48 h).
`Clc1nc(NCc2ccco2)c2[nH]cnc2n1` gave a ΔPSI of -0.213 (iPSC-derived cardiomyocytes; RNA-seq, refers to: ANKRD10 chr13 exon ending 110900694; unit not given; reference: DMSO minus compound).
For `CC(=O)c1nn(-c2ccc(Cl)cc2)/c(=N/N=C(\C)c2ccc(NC(=O)c3ccc(C)cc3)cc2)s1`, the viability was 21.6% (HepG2; 0.625 µM).
`O=S(=O)(NNc1nnc(Cl)c2ccccc12)c1ccc(F)cc1` has a cytotoxicity of 11.8% (Vero; MTT; 62.5 µg/mL).
For `Cc1nn(CC(F)(F)F)cc1Nc1ncc(Br)c(NCc2ccc(S(N)(=O)=O)cc2)n1`, the phospho-TBK1/TBK1 ratio was 1.21 and 0.939 and 1.11 (RAW-ISG; western blot; 10 µM, added: HT-DNA; reference: vehicle).
Under “average fractional effect”, `COc1cc2ncnc(Nc3ccc(Oc4ccccc4)c(C)c3C)c2cc1OC.Cl` is recorded as 8% (MeWo (NF1); cell viability, resazurin; 0.3 µM, 72 h, added: trametinib).
`O=P1(C2CCCCC2)CCCCC1` — result for “reduction of cell number”: 45 to 53% (SW480; trypan blue; IC50, 72 h; reference: untreated).
`CCCCN1C[C@H](O)[C@@H](O)[C@@H](O)[C@H]1CO` has an IC50 of 28.8 µM (sample B patient fibroblasts; GlcCer level lowering, LC-MS/MS, refers to: GlcCer d18:1/24:1; 216 h).
`N#Cc1c(Oc2ccc(F)c(NC(=O)Cc3cccc(C(F)(F)F)c3)c2)ccc2nc(NC(=O)C3CC3)sc12` gave an IC75 of 0.542 µM (SK-MEL-239 C4; ERK phosphorylation, inhibitor, Western blot, refers to: p-ERK/total ERK; 1 h).
`COc1cnc2cccc(N3CCc4c(cc(Cn5ccnc5C)cc4-c4cn(C)nc4C(F)(F)F)C3=O)c2c1` gave an EC50 of 1.86 µM (DOHH-2; cell growth, inhibitor; 120 h).
`O=c1cc(C(Cl)(Cl)Cl)oc2ccc(Cl)cc12` — result for “CREB phosphorylation Ser133”: “inhibited” (Neuro2a; inhibitor, western blot; concentration not given, added: BRP 100 µg/mL).
For `Cc1cnc2ccc3c(c2n1)N1CCC(O)N=C1N3C` (centres unmarked), the colony number was 86 colonies per plate (BALB/c 3T3; colony forming efficiency; 1 µM).
`Nc1ncnc2c1ncn2[C@@H]1O[C@H](CO)[C@@H](O)[C@H]1O`: “log2 fold change” 1.6 and 2 (activated human T cells; refers to: hypoxanthine; 10 µM; reference: DMSO).
`O[C@H]1[C@H]2c3cc4c(cc3CN3CCC(=C[C@@H]1O)[C@H]23)OCO4` gave an efficacy of 28% (LDR; silenced CMV-GFP reporter derepression, qHTS).
`CCCCc1nc(Cl)c(CO)n1Cc1ccc(-c2ccccc2-c2nn[nH]n2)cc1` — result for “log2 fold change”: -2.24 (human PBMC; RNA-seq, refers to: RHOBTB1 mRNA; 10 µg/mL, 24 h; reference: untreated control).
The fold change of `C=CC1=C(C)c2cc3[n-]c(cc4nc(cc5[n-]c(cc1n2)c(C)c5C=C)C(C)=C4CCC(=O)O)c(CCC(=O)O)c3C.[Zn+2]` is reported as 1.55 (SH-SY5Y; RNA-seq, refers to: SGK1 mRNA; 5 µM, 5 h; reference: untreated cells).
For `CC(=O)Nc1cccc(-n2c(=O)n(C3CC3)c(=O)c3c(Nc4ccc(I)cc4F)n(C)c(=O)c(C)c32)c1`, “average fractional effect” read 47% (MeWo (NF1); cell viability, resazurin; 100.00 nM, 72 h; reference: DMSO).
With `CC/C(=N\NC(=O)NCc1cccc(O)c1)c1ccc(O)c(C)c1O` the log ratio was 5.59 (SK-OV-3; gene expression, microarray, refers to: ANKRD1; 10 µM, 24 h; reference: DMSO).
`C/C(=C/C(=O)O)C(=O)O` — result for “log2 fold change”: 0.0764 (binding, MIDAS equilibrium dialysis LC-MS; A2AR-BRIL thermostabilized; concentration not given; reference: no-protein control).
`COc1ccc(-c2cc(-c3ccccc3)nc(SCC(=O)Nc3nccs3)c2C#N)cc1` gave an efficacy of 25% (LDR; silenced CMV-GFP reporter derepression, qHTS).
With `CSc1cc(Oc2ccnc3[nH]c(=O)cnc23)ccc1NC(=O)Nc1cc(C(C)(C)C)nn1-c1ccccc1` the phospho ratio was 0.64 (patient-derived cell line clone A; RPPA, refers to: phosphorylated SAPK/JNK; human; 1 µM, 4 h; reference: DMSO).
Under “number of upregulated genes”, `Cn1cc(Nc2nccc(-c3ccc4c(c3)CN(C3COC3)CC[C@H]4NC(=O)c3cn(C(C)(C)C)nn3)n2)cn1` is recorded as 26 (human B cells; 100 nM, 64 h, stimulation-upregulated genes, added: CD40L, anti-IgM, IL-21).
`C=C1CC[C@@H]2[C@](C)(CCC[C@]2(C)C(=O)O)[C@H]1CC/C(C)=C/CO`: PARP cleavage “increased” (neuroblastoma M2 (−); western blot; IC50; reference: untreated).
Under “Hill coefficient GR curve”, `Cc1nc(NC(=O)N2CCC[C@H]2C(N)=O)sc1-c1ccnc(C(C)(C)C(F)(F)F)c1` is recorded as 0.481 (NCI-H1563; cell growth, CellTiter-Glo; 120 h).
`Cc1c(C(=O)O)ccc2c3n(nc12)[C@@H]1[C@H](C3)N(CC2CC2)[C@@]2(C(=O)Nc3cc(Cl)ccc32)[C@H]1c1cccc(Cl)c1F` gave a GI50 of 0.003 µM (MDM2-amplified well-differentiated liposarcoma cells; alamarBlue; 120 h).
For `Cn1cncc1C[C@H](NC(=O)CCN)C(=O)O`, “log2 fold change” read -0.161 (binding, MIDAS equilibrium dialysis LC-MS; A2AR-BRIL thermostabilized; concentration not given; reference: no-protein control).
The migration inhibition of `Cc1nc(N(Cc2ccccc2)c2ccc3c(c2)/C(=C/c2ccccc2)C(=O)N3Cc2ccccc2)c2ccccc2n1` (mixture of isomers) is reported as 81% (LLC; Transwell; 2 µM, 24 h; reference: untreated).
With `COc1cccc(OC)c1-c1cc(C(=O)NC2(C(=O)O)C3CC4CC(C3)CC2C4)nn1-c1ccc(C(=O)N(C)CCCN(C)CCCN(C)C(=O)CN2CCN(CC(=O)[O-])CCN(CC(=O)[O-])CCN(CC(=O)[O-])CC2)cc1C(C)C.[177Lu+3]` (centres unmarked) the internalized fraction was 7.15 ± 0.3% (HT-29; 240 min, 4 h; reference: added activity).
`O=C(/C=C/C=C/C=C/C1CCCCC1)NC1=C[C@@](O)(/C=C/C=C/C=C/C(=O)NC2=C(O)CCC2=O)[C@@H]2O[C@@H]2C1=O` has a GI50 of 14.3 µM (hcc2279; cell growth, inhibitor, CellTiter-Glo luminescence; 78 h; reference: day 0 cell count).
For `CC1(C)CCC(CN2CCN(c3ccc(C(=O)NS(=O)(=O)c4ccc(NCC5CCOCC5)c([N+](=O)[O-])c4)c(Oc4cnc5[nH]ccc5c4)c3)CC2)=C(c2ccc(Cl)cc2)C1`, the necrotic cells was 0.2% (THP-1; annexin V/PI flow cytometry, refers to: annexin V-/PI+; 0.4 µM, 24 h).
`O=C1N=C(N2CCCCC2)S/C1=C\c1cc(Cl)ccc1O`: EC50 “inactive” (NG108-cl; clomeleon fluorescence, refers to: intracellular chloride reduction; 5 h).
The efficacy of `CN(c1ccccc1)S(=O)(=O)c1nnc(NC(=O)c2ccccc2)s1` is reported as 188% (LDR; silenced CMV-GFP reporter derepression, qHTS).
For `CCCCS(=N)(=O)CCC(N)C(=O)O` (centres unmarked), “cellular GSH concentration” read 58.8 ± 2.3 µM (OVCAR-5; LC-ESI-MS/MS, refers to: glutathione; 20 µM, 12 h).
For `CC(C)NCC(O)c1ccc(O)c(O)c1` (centres unmarked), the sarcomere length was 1.76 µm (mouse ventricular cardiomyocytes; dose not given, 0.087 s).
`Cl.Cl.NCCNS(=O)(=O)c1ccc(Cl)c2ccncc12` — result for “relative cell number”: 119% (SK-OV-3; ATP; 2D monolayer culture; 0.1 µM, 4 days; reference: untreated).
For `Cc1cccc(-c2[nH]c(CNc3ccccc3F)nc2-c2ccc3ncnn3c2)n1`, the viability was 7% (bone marrow CD138+ myeloma cells; XTT; 1.8 µM, phenol red-free RPMI).
For `CCCCCCCCCCCCCCC/C(NCc1ccccc1)=C1/C(=O)OC(CO)C1=O` (centres unmarked), “G2/M phase cells” read 60.3% (G2-synchronized tsFT210 cells; flow cytometry; 50 µM, 4 h, 32 °C, release from G2 arrest).
`COc1cc2nc(=S)n3[nH]c(CCn4nc(C)cc4C)nc3c2cc1OC` gave an efficacy of 175% (LDR; silenced CMV-GFP reporter derepression, qHTS).
For `CCn1cc(-c2cc(Cn3ccoc3=N)cc3c2CCN([C@@H](C)c2cc(OC)ccn2)C3=O)c(C(F)(F)F)n1`, the EC50 was 4.7 µM (KLM1; cell growth, inhibitor; 120 h).
For `c1ccc2[nH]ccc2c1`, “mRNA level, LS mean” read 56.7 counts per million (HCT-8; RNA-seq, refers to: ADM2; concentration not given).
`C=Cc1c2[n-]c(c1C)/C=c1\[n-]/c(c(C)c1C=C)=C\c1[n-]c(c(CCC(=O)O)c1C)/C=c1\[n-]c(c(C)c1CCC(=O)O)=C2.[Sn+4]` gave a fold change of 1.91 (SH-SY5Y; RNA-seq, refers to: PHLDA1 mRNA; 5 µM, 5 h; reference: untreated cells).
Under “log2 fold change”, `Cc1cc(Nc2ncc(Cl)c(Nc3ccccc3S(=O)(=O)C(C)C)n2)c(OC(C)C)cc1C1CCNCC1` is recorded as -1.98 (CLB-GE; phosphoproteomics LC-MS/MS, refers to: PPP1R12A phosphorylation; 200 nM, 60 min; reference: untreated).
For `C=CCn1c(=O)c2cnc(Nc3ccc(N4CCN(C)CC4)cc3)nc2n1-c1ccc2c(n1)[C@@](O)(CC)CC2`, the γH2AX-positive cells was 9.8% (Kuramochi; flow cytometry; 1 µM, 24 h).
`COc1ccc2c(N(C)c3ccc(/C(C)=N/OCCN)cc3)c3c(Cl)coc3nc2c1`: “reduction in mitochondrial superoxide” 40% (RWPE-1; MitoSOX staining; 1 µM, 24 h).
`CCn1cc(-c2cc(Cn3ccnc3)cc3c2CCN([C@H](c2cc(OC)ccn2)C2CC2)C3=O)c(C(F)(F)F)n1` gave an EC50 of over 30 µM (SW480; cell growth, inhibitor; 120 h).
`CNc1ncnc2c1c(-c1ccc3cc(OC4CC4)ccc3c1)nn2CC(C)(C)O` — result for “oxygen consumption rate”: “no effect” (PC-3, DU-145, U2OS; mitochondrial respiration, Seahorse; concentration not given).
With `COc1cc(/C=C/C(=O)N2CCC=CC2=O)cc(OC)c1OC` the mRNA level was 64 ± 3.7% (MDA-MB-468; quantitative RT-PCR, refers to: XIAP; 30 µM, 8 h; reference: untreated cells).
`Cc1ccc(Sc2cc(NCCCO)c([N+](=O)[O-])c3nonc23)cc1` has an efficacy of 28% (LDR; silenced CMV-GFP reporter derepression, qHTS).
`Cn1cc(-c2ccc(-c3cncc(Cl)c3N3CCC4(CCNC4=O)CC3)cc2)cn1`: “log2 fold change” 3.7 (COLO 205; gene expression, microarray, refers to: LAMA3 mRNA; concentration not given, 6 h; reference: untreated cells).

Repeated from above:
For `CCCCS(=N)(=O)CCC(N)C(=O)O` (centres unmarked), “cellular GSH concentration” read 58.8 ± 2.3 µM (OVCAR-5; LC-ESI-MS/MS, refers to: glutathione; 20 µM, 12 h).
`O=P1(C2CCCCC2)CCCCC1` — result for “reduction of cell number”: 45 to 53% (SW480; trypan blue; IC50, 72 h; reference: untreated).
With `COc1cc(/C=C/C(=O)N2CCC=CC2=O)cc(OC)c1OC` the mRNA level was 64 ± 3.7% (MDA-MB-468; quantitative RT-PCR, refers to: XIAP; 30 µM, 8 h; reference: untreated cells).
For `CCn1cc(-c2cc(Cn3ccoc3=N)cc3c2CCN([C@@H](C)c2cc(OC)ccn2)C3=O)c(C(F)(F)F)n1`, the EC50 was 4.7 µM (KLM1; cell growth, inhibitor; 120 h).
`O=C(/C=C/C=C/C=C/C1CCCCC1)NC1=C[C@@](O)(/C=C/C=C/C=C/C(=O)NC2=C(O)CCC2=O)[C@@H]2O[C@@H]2C1=O` has a GI50 of 14.3 µM (hcc2279; cell growth, inhibitor, CellTiter-Glo luminescence; 78 h; reference: day 0 cell count).
For `Cn1cncc1C[C@H](NC(=O)CCN)C(=O)O`, “log2 fold change” read -0.161 (binding, MIDAS equilibrium dialysis LC-MS; A2AR-BRIL thermostabilized; concentration not given; reference: no-protein control).
`C/C(=C/C(=O)O)C(=O)O` — result for “log2 fold change”: 0.0764 (binding, MIDAS equilibrium dialysis LC-MS; A2AR-BRIL thermostabilized; concentration not given; reference: no-protein control).
Under “Hill coefficient GR curve”, `Cc1nc(NC(=O)N2CCC[C@H]2C(N)=O)sc1-c1ccnc(C(C)(C)C(F)(F)F)c1` is recorded as 0.481 (NCI-H1563; cell growth, CellTiter-Glo; 120 h).
